# Literature values that unrelated publications cite.
# Lines come from different studies, so protocols differ. ± gives the spread as reported.
Compound,target or system,test,setting,endpoint,value
CC(C)NCCCn1c(Sc2cc3c(cc2I)OCO3)nc2c(N)ncnc21,cancer cell lines,cell growth,approximate value,IC50,0.15 to 0.3 µM
CCCN(C)c1cc(C(F)(F)F)nc(SCCC(=O)NCc2ccco2)n1,SNU-C5,inhibitor,"concentration not given, added: EPEC-1 infection",cell death,inhibited
C[C@@H]1NC(=O)[C@H](CCCNC(=N)N)NC(=O)[C@H](Cc2ccc3ccccc3c2)NC(=O)[C@H]2CCCCN2C(=O)[C@@H]([C@H](C)OP(=O)(O)O)NC(=O)CN(C)C(=O)[C@@H](C)NC(=O)c2cc3cc(c2)C(=O)NC[C@H](NC(=O)[C@@H](C)NC1=O)C(=O)N[C@@H](Cc1ccccc1)C(=O)N[C@@H](Cc1ccc2ccccc2c1)C(=O)N[C@@H](CCCNC(=N)N)C(=O)N[C@@H](CCCNC(=N)N)C(=O)N[C@@H](CCCNC(=N)N)C(=O)N[C@@H](CCCNC(=N)N)C(=O)N[C@H](C(=O)N[C@@H](CCCCN)C(N)=O)CNC3=O,HeLa,cell growth,,IC50,1.8 µM
CC(=O)OC12COC1CC(O)C1(C)C(=O)C(OC(=O)C3CC3)C3=C(C)C(OC(=O)C(O)C(C=C(C)C)NC(=O)OC(C)(C)C)CC(O)(C(OC(=O)c4cccc(OC(F)(F)F)c4)C21)C3(C)C (stereo not drawn),"MCF7/PTX, paclitaxel-resistant",cell viability,,IC50,0.0349 ± 0.00297 µM
NCCCNC(=O)c1cn(CCCc2ccccc2)c2cc(Cl)ccc2c1=O,HepG2,cell growth,,IC50,≤ 1 µM
C[C@H](NC(=O)CNC(=O)[C@@H]1CCCN1C(=O)[C@H](CO)NC(=O)CNC(=O)CN)C(=O)N[C@@H](CCCCN)C(=O)N[C@@H](CCCCN)C(=O)N[C@@H](CC(N)=O)C(=O)N[C@H](C(=O)N[C@@H](CCCCN)C(=O)N[C@@H](CO)C(=O)N[C@@H](C)C(=O)N[C@@H](CS)C(=O)NCC(=O)N[C@@H](CCCCN)C(=O)N[C@@H](C)C(=O)N[C@@H](CS)C(=O)N[C@@H](C)C(=O)N[C@@H](CS)C(=O)N[C@@H](Cc1c[nH]cn1)C(=O)O)[C@@H](C)O,Staphylococcus aureus,,,MIC,> 128 µM
Nc1nc2[nH]c(CCCCc3ccc(C(=O)N[C@@H](CCC(=O)O)C(=O)O)cc3)cc2c(=O)[nH]1,CHO PC43-10 (human RFC),cell growth,,IC50,> 1 µM
CC(=O)N[C@@H](CCCNC(=N)N)C(=O)N[C@H](C(=O)N[C@@H](CCCCN)C(=O)N[C@@H](CO)C(=O)N[C@@H](CCCNC(=N)N)C(=O)N[C@H](C(=O)N[C@@H](Cc1c[nH]c2ccccc12)C(=O)N[C@@H](C)C(=O)NCC(=O)N[C@@H](CCC(=O)O)C(=O)N[C@@H](CCCCN)C(=O)N[C@@H](CO)C(=O)N[C@@H](CCCCN)C(=O)N[C@@H](CCCNC(=N)N)C(N)=O)[C@@H](C)OP(=O)(O)O)[C@@H](C)O,cSCC cells,cell death,,IC50,22.1 µM
CC[C@H](C)[C@H](NC(=O)[C@@H]1CCCN1C(=O)CNC(=O)[C@H](CC(C)C)NC(=O)[C@H](CCCCN)NC(=O)[C@H](CCCNC(=N)N)NC(=O)[C@H](Cc1c[nH]c2ccccc12)NC(=O)[C@H](C)NC(=O)[C@H](CC(N)=O)NC(=O)[C@H](CCCCN)NC(=O)[C@H](CC(C)C)NC(=O)[C@H](CCCCN)NC(=O)[C@H](CC(N)=O)NC(=O)[C@H](CCCNC(=N)N)NC(=O)[C@H](C)NC(=O)[C@H](CCCNC(=N)N)NC(=O)[C@H](CCCNC(=N)N)NC(=O)[C@H](Cc1ccccc1)NC(=O)[C@H](Cc1c[nH]c2ccccc12)NC(=O)CN)C(=O)N[C@H](C(=O)NCC(=O)N1CCC[C@H]1C(=O)N[C@@H](CC(C)C)C(=O)N[C@@H](CC(C)C)C(=O)N[C@H](C(=O)N[C@@H](CCCNC(=N)N)C(=O)O)[C@@H](C)O)C(C)C,Staphylococcus aureus,,,MIC,16 µM
Nc1nc2sc(CCCCc3ccc(C(=O)N[C@@H](CCC(=O)O)C(=O)O)cc3)cc2c(=O)[nH]1,CHO PC43-10 (human RFC),cell growth,,IC50,> 1 µM
CC(=O)OC1C(=O)C2(C)C(O)CC3OCC3(OC(C)=O)C2C(OC(=O)c2cccc(OC(F)(F)F)c2)C2(O)CC(OC(=O)C(O)C(C=C(C)C)NC(=O)OC(C)(C)C)C(C)=C1C2(C)C (stereo not drawn),"MCF7/PTX, paclitaxel-resistant",cell viability,,IC50,0.019 ± 0.00203 µM
CCN(CC)C(C)CNC(=O)c1cn(Cc2ccccc2)c2cc(Cl)ccc2c1=O (stereo not drawn),several cancer cell lines,,range over cell lines,IC50,4.43 to 19.5 µM
